Published values collected from several papers.
Each numbered part is a random draw from the data of one study; scales do not carry over between parts.

Sample 1
Target: Ras GTPase-activating protein-binding protein 1, C-terminal RGG region (G3BP1, Homo sapiens, UniProt Q13283)
Chain of UniProt Q13283 (whole entry, looked up): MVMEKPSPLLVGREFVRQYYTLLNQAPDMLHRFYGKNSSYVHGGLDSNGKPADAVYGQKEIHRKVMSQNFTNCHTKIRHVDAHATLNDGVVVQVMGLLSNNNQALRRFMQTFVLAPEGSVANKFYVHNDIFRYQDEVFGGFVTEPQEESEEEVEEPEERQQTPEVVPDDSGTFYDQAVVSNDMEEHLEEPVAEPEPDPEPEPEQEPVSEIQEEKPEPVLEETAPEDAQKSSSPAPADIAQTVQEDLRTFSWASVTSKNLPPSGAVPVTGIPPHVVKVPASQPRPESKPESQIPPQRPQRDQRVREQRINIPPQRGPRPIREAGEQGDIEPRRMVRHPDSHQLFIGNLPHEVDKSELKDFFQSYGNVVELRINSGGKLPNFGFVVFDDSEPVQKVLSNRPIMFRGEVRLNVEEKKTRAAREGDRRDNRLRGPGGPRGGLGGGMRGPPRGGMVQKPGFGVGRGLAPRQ
Method: RNA Bind-n-Seq
Form: RNA
Matrix: in vitro
Concentration: 1 µM
Setting: whole 134-nt RNA, ends assumed
Together with: 150 mM KCl
Baseline: input library
Direction: higher = stronger binding
Shared flanks, not repeated: GGGAGUUCUACAGUCCGACGAUC … UGGAAUUCUCGGGUGUCAAGG
Strand	log2 enrichment
CCUCAAGUCCUGUGCUACACAUCGUAUGUACCGAAUCGGGUGGGUGGGUGGGGAAAGUAUUAUGUUACGCCGUUCGGAUCUGCACUUCCA	0.975
UAACUUUGGAGGAGGAUCUGAUGGAUAUGGCAGUGGACGUGGAUUUGGGGAUGGCUAUAAUGGGUAUGGAGGAGGACCUGGAGGUGGCAA	-1.43
CAAGUCCUGUGCUACACAUCGUAUGUACCGAAUCGGGUUUUUGGGUUUGGGUGGGAAAGUAUUAUGUUACGCCGUUCGGAUCUGCACUUC	1.51
GCAGGAAGUAAAAACAAAUGGAAAUGCUUCGGAUAGUGGCAGGGGUGGGGGUUGCUAAGGGAAGGGUGGGAUGGGAGUGGGUAAAGAGUU	2.52
UGGGAGGUGGAUUUUGUUUAUUUUUUUACCUCAUUUCCAGGGGUGGGAAUUUUUUUUUAAUAUGUGUCAUGAAUAAAGUUGUUUUUGAAA	3.45
UUACAGAUGUAGAGCUAAAACGACUGAAGGAUGCUUUCAAGAGGACCUGUGGACUCUCAUAUUACAUGGGCCAGCACUGCUUCAUCCGGG	-0.137
UAGGUGUUAUCUUCAGGAAGGCACACUGGACCUGCUAAAUUAACAAAUGGAAAGAAAGCGUAAGUACUUGAAGACGUUUACAACUUCAGA	-2.06
CCUCAAGUCCUGUGCUACACAUCGUAUGUACCGAAUCGGGGUGGGGUGGUGGAAAGUAUUAUGUUACGCCGUUCGGAUCUGCACUUCCAG	-0.194

Sample 2
Target: Interferon regulatory factor 5, full length, phosphomimetic (IRF5, Homo sapiens, UniProt Q13568-2, residues 1-514, S451D/S453D/S456D/S462D)
Method: protein-binding microarray
Form: double-stranded DNA, one strand shown
Matrix: in vitro
Concentration: 940 nM top
Setting: 60-bp whole probe
Together with: salmon DNA 0.4 mg/ml
Baseline: random background probes
Direction: higher = stronger binding
Shared flanks, not repeated: GCCTAGCAC … GTCTTGATTCGCTTGACGCTGCTG
Strand	fitted relative affinity
GACGGTCTCCTACTGGTGACGTGCTAG	-0.417 z-score
TTCACTTTAAATTAGACTTAGTGCTAG	0.407 z-score
TTGGGTTTCGGTATCGGTTAGTGCTAG	13.9 z-score
TTAGATTTCAGTCTCGAGTAGTGCTAG	2.21 z-score
TTGGGTTCCCTTTTCCTTTAGTGCTAG	0.694 z-score
TCACCTCCCCCTCTGCCACTGTGCTAG	0.266 z-score
GACGGACTGTGGACTGGGGACGTGCTA	-0.189 z-score
TTAGGTTTCGGACGGGGTTAGTGCTAG	7.76 z-score

Sample 3
Organism: SARS-CoV-2
Effect on: cytopathic effect
Cells: Vero E6
Concentration: 10 µM
Compound	inhibition [%]
O=C(c1ccc(Cl)cc1)c1cc([N+](=O)[O-])ccc1N1CCOCC1	-10.1
S=C(S)N1CCCC1	0.33
COc1cc(-c2ccc(/N=N/c3ccc4c(S(=O)(=O)O)cc(S(=O)(=O)O)c(N)c4c3O)c(OC)c2)ccc1/N=N/c1ccc2c(S(=O)(=O)O)cc(S(=O)(=O)O)c(N)c2c1O	-14.2

Sample 4
Cell line: HEK-293T
Organism: VSV pseudotyped with SARS-CoV-2 spike
Concentration: 10 µM
Time: 16 h
SMILES	pseudovirus infection [%]
COc1cc(Cc2cnc(N)nc2N)cc(OC)c1OC	81.3
NC(N)=Nc1nc(CSCCC(N)=NS(N)(=O)=O)cs1	76.9
NCCCC(O)(P(=O)(O)O)P(=O)(O)O	106
CCN[C@H]1C[C@H](C)S(=O)(=O)c2sc(S(N)(=O)=O)cc21	81.2
Cn1cnc([N+](=O)[O-])c1Sc1ncnc2nc[nH]c12	105

Sample 5
Target: Replicase polyprotein 1ab, polymerase (rep, Severe acute respiratory syndrome coronavirus 2, UniProt P0DTD1)
Effect on: enzyme activity
Mode: inhibitor
Concentration: 20 µM
Structure (SMILES)	inhibition
COC(=O)C1=C(C)NC(C)=C([N+](=O)[O-])[C@H]1c1ccccc1C(F)(F)F	1.84%
Cc1ccccc1NC(=N)Nc1ccccc1C	-8.33%
CC(C)CNc1ccnc(NCc2csc(-c3ccccc3)n2)n1	32.7%
O/N=C/c1ccc(-c2ccc(O)c(F)c2)c(Cl)c1O	-1.04%
C[C@@H](Oc1ccc2[nH]nc(/C=C/c3cnn(CCO)c3)c2c1)c1c(Cl)cncc1Cl	-6.22%
O=C1N[C@H](C(=O)O)CS1	0.88%
CC[C@]12CCCN3CCc4c(n(c5ccccc45)C(=O)C1)[C@@H]32	2.61%
CN[C@@H]1[C@H](O)[C@H](NC)[C@H]2O[C@@]3(O)C(=O)C[C@@H](C)O[C@H]3O[C@@H]2[C@H]1O	19.2%
CCc1nc(C)ccc1O	0.97%
Nc1ncc2c(n1)CC(c1ccco1)CC2=O (stereo not drawn)	-14.2%
O=C(CN1CCN(Cc2ccc3c(c2)OCO3)CC1)N1c2ccccc2Sc2ccccc21	0.82%
Cc1nc(NS(=O)(=O)c2ccc(N)cc2)oc1C	-6.72%
O=C(NC1CCC1)c1ccc(C#Cc2cccc(F)c2)nc1	1.67%
CCCC(=O)C1CCN(c2ncnc3c2CN(C(=O)c2ccc(-c4ccccc4)cc2)CC3)CC1	2.95%
C1CCC(C(CC2CCCCN2)C2CCCCC2)CC1 (stereo not drawn)	-0.67%
Cc1c(-c2cnccn2)ssc1=S	-2.17%
CC(C)(C)C(=O)OCOC(=O)[C@@H]1N2C(=O)[C@@H](/N=C/N3CCCCCC3)[C@H]2SC1(C)C	3.1%
O=C(CCCCCCC(=O)Nc1cccnc1)NO	-4.21%
COc1cc(C)c(/C=C/C(C)=C/C=C/C(C)=C/C(=O)O)c(C)c1C	0.2%
COc1ccc2cc(OCC3(C(=O)O)CN(C(=O)c4ccc(F)cc4)C3)ccc2c1	0.47%
O=C1CCC(N2C(=O)c3ccccc3C2=O)C(=O)N1 (stereo not drawn)	-1.36%
NCc1ccc(S(N)(=O)=O)cc1	21.6%
Cn1c(=O)c2c(ncn2CC(O)CO)n(C)c1=O (stereo not drawn)	6.41%
Nc1ccn([C@@H]2CS[C@H](CO)O2)c(=O)n1	-2.58%
Cc1ccc([N+](=O)[O-])cc1O	3.31%

Sample 6
Target: Histone acetyltransferase KAT6A, winged helix 1, GST fusion (KAT6A, Homo sapiens, UniProt Q92794, residues 1-85)
Method: protein binding microarray
Form: double-stranded DNA, one strand shown
Matrix: in vitro
Concentration: not given
Setting: 8-mer, flanks averaged, mean of 2 arrays, mostly near background
Baseline: not given
Direction: higher = stronger binding
Construct (chain): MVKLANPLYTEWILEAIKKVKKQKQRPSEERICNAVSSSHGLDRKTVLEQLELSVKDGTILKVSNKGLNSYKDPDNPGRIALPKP
Strand	E-score
AAAGAGAG	-0.179
CAACGCAG	-0.0165
CAGACAGC	-0.0901
AGACTACA	-0.0676
CGTCGGTA	0.401
ACCGTTCC	0.255
GTAATTCA	-0.0315
CGATTCGC	0.107

Excerpt of the above (sample 2):
Strand	fitted relative affinity
GACGGTCTCCTACTGGTGACGTGCTAG	-0.417 z-score
TTCACTTTAAATTAGACTTAGTGCTAG	0.407 z-score
TTGGGTTTCGGTATCGGTTAGTGCTAG	13.9 z-score
TTAGATTTCAGTCTCGAGTAGTGCTAG	2.21 z-score
TTGGGTTCCCTTTTCCTTTAGTGCTAG	0.694 z-score
